Published values from different studies.
Parts stem from different laboratories: compare values within a part only.

Block 1 — method: protein-binding microarray; form: double-stranded DNA, one strand shown; matrix: in vitro; tested at: 2540 nM top; setting: 60-bp whole probe; added: salmon DNA 0.4 mg/ml; relative to: random background probes; reading: higher = stronger binding; quantity: fitted relative affinity; constant ends, left off below: GCCTAGCAC … GTCTTGATTCGCTTGACGCTGCTG
Target: Interferon regulatory factor 3, full length, phosphomimetic (IRF3, Homo sapiens, UniProt Q14653, residues 1-427, S386D/S396D/S398D/S402D/T404D/S405D)
Target sequence (chain): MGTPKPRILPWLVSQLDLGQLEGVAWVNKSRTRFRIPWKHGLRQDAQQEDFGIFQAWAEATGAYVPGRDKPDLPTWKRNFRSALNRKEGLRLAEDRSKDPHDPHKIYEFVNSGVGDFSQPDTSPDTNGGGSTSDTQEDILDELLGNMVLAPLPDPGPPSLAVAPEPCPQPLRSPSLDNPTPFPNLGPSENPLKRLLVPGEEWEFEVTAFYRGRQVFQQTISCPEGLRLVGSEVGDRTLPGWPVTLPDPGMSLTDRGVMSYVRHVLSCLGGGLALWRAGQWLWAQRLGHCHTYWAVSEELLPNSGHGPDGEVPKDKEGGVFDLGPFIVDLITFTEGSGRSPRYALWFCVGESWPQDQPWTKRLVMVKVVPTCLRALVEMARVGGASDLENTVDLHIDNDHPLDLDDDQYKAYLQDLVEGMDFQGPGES
TTTCACACTGTCCAGCAGGTGTGCTAG: 3.4 z-score
GACGAACTGGGGTATCGATACGTGCTA: -0.00898 z-score
GACTGACTGGACTTTCGGGACGTGCTA: -0.0185 z-score
GACGATTTCGGTATCGGGACGTGCTAG: 4.81 z-score
TTAGATTTCATTTTCGATTAGTGCTAG: 4.34 z-score
GACGGTTCCGATTTCGGGACGTGCTAG: 4.29 z-score
GACGGTTACGGTTCCGGGACGTGCTAG: 2.33 z-score
GACGGTTTCCTACAGCTGACGTGCTAG: 3.19 z-score
TTAGGACTGGGTCTCGGATAGTGCTAG: -0.636 z-score
TTAGGTATCGGTCTCGATTAGTGCTAG: 4.71 z-score
TTAGGTTTCTTTATCCTTTAGTGCTAG: 3.36 z-score
TTAGGTCTCCTTCTCATTTAGTGCTAG: 4.19 z-score
CACGGACTGGGTTTCGGGACGTGCTAG: 1.2 z-score
TTAGGAGTGGGACTGGGTTAGTGCTAG: -0.855 z-score
TTAGGTTTCGGTTTCGGTCAGTGCTAG: 11.8 z-score
GACGGTTTCGGTATCGAGACGTGCTAG: 8.15 z-score
TTAGGTTCCGGTTTAGGTTAGTGCTAG: 4.59 z-score
GACGGTTTCTTACTGCTGACGTGCTAG: 2.08 z-score
TCATATATGACAATGATACTGTGCTAG: 0.492 z-score
GACCGACTGGGGACTGGGGACGTGCTA: -0.455 z-score
GACGGTATCGACTTTCGGGAGGTGCTA: 1.32 z-score
TTAGCTATCCTTCTCCTTTAGTGCTAG: 4.25 z-score
TTGGATTTCAGTCTCGATTAGTGCTAG: 1.73 z-score
GACGGTCTCGGACTGGGTACGTGCTAG: 0.131 z-score
TTAGGTCTCCTTTTCCCTTAGTGCTAG: 4.92 z-score

Block 2 — method: protein binding microarray; form: double-stranded DNA, one strand shown; matrix: in vitro; tested at: not given; relative to: not given; reading: higher = stronger binding; quantity: E-score
Target: Histone acetyltransferase KAT6A, winged helix 1, GST fusion (KAT6A, Homo sapiens, UniProt Q92794, residues 1-85)
Setting: 8-mer, flanks averaged, mean of 2 arrays, mostly near background
Construct (chain): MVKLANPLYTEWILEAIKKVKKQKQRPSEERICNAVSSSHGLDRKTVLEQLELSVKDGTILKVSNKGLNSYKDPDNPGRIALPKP
CGCGTGAC: 0.314
AAACATTC: -0.199
CTCGAGCC: -0.0384
GGCGGTGA: 0.266
GCAGCGCC: 0.389
AACTTAAT: -0.136
TAGCTCAA: -0.0948
TCCCGACA: 0.147
TAGGCCAA: -0.15
ACCTTTTC: -0.159
CACGAACC: 0.131
CAAATCTC: -0.13
GCCGCCCA: 0.337
CAGTTCCC: 0.163
AGGGGTAG: -0.239
TAGTCAGA: -0.0558
AGGCTAGG: -0.143
CAAATGCA: -0.179
ACTTACGC: 0.113
ACAAGGAC: -0.249
TAAGTAAA: -0.133
ATTAAAAA: -0.0914
TAATGGAA: 0.00036
GCAACGGA: 0.275
AATACATC: -0.0961

Block 3 — method: RNA Bind-n-Seq; form: RNA; matrix: in vitro; tested at: 365 nM; relative to: no-protein control; reading: higher = stronger binding; quantity: RBNS enrichment (R)
Target: RNA binding protein fox-1 homolog 2, RRM domain, GST-SBP tag (RBFOX2, Homo sapiens, UniProt O43251-10, residues 100-194)
Setting: natural RNA segment, single round, ends assumed
Target sequence (chain): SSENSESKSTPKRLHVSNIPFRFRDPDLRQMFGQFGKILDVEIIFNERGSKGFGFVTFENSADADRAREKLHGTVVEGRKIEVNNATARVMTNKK
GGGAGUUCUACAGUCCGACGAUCAAAAGAUUUUAUGUAAGAAAUGUGCUUACACUUUGUAUUUUAUUUUUAGCAGCAGCUAAAAGGCCUGUAGUUUUACUCUCUCUCUCCUCUCUCUCUCUCUCUCUCUCUCUUGGAAUUCUCGGGUGCCAA: 2.56
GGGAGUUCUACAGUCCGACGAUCCCUGGGAGCGUCUGGAGCUCACAGUGAUCAGUGACCACAUCAUUCUCUCUGAGCAGAGGAGCAGGAAUCCCUCAAGCAGCAGCCUGGUCUUGGCUGGUGGGCAGAUGCAAUGGAAUUCUCGGGUGCCAA: 0.432
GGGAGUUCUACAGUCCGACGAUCGAGGGAGCUGACCGAUGCCGGGUGUCUUACUCCGCUGAGAUCAGAACCUCCAACAUGCCGAGCAGACGCAGGCCACAUUGCUCGGGGAACAGGACACCAGGGCGCUGUGCUGGAAUUCUCGGGUGCCAA: 0.694
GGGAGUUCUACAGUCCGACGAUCGUGUCUGCCCUUGCCACCUCCCAGCCUGCUGCAUGCAUGUGCAGCAUGGGCUUUUGCUCCAUCACCGCAAAGUUCUGCAGGGGCCCUGGGCAGUGCUGGCCUGUCUGACGUGGAAUUCUCGGGUGCCAA: 6.46
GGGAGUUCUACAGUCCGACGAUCAUCUCAUUGAUUAUUGACACCUUGAGGUCUGAAGGAUUCCACACUCGAGGAUGCUGACCUAAGCCAGAGCCAUCUAGUUGCCCCUCUGGGCAACUUUGGGAAUUCUGGGAUGGAAUUCUCGGGUGCCAA: 0.252
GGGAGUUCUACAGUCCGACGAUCGAGCUCAGCAUGUCACGGCAAGGACUGCCGCAUUGGUGAUGGAGGGCCAGCUGAGGGGAAGUUGCUGGUGAGUUUCCUUUUCUCCAUUUCUAGCAUAUGGACACCUGGCCUGGAAUUCUCGGGUGCCAA: 12.6
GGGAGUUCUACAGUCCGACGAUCCCUGUCCCUAGUAUGUUCUUUCAUGUUCUGGGUAAAAUUUCCAACCCUCAAAGAGUCUAAAACGUCUCAUUUUUUUUUACCACGUCCUCCCCAGUAAGAAGCCAAGGUACUGGAAUUCUCGGGUGCCAA: 0.941
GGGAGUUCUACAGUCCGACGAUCUAUUUUAAGAAAUAACAGAAAGCCUGGGUGACAUUUGGGAGACAUGUGACAUUUAUAUAUUGAAUUAAUAUCCCUACAUGUAUUGCACAUUGUAAAAAGUUUUAGUUUUGUGGAAUUCUCGGGUGCCAA: 0.777
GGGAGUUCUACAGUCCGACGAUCCUUGCUGGGUCACCUUUUCCUGAGGAAUGAUACAGAAGAGUGUUUUUUCAUAAACUGGACCAUAAUUCUUCAUGUUUACCAUGGAGAGUUUUACAGAAAUUUGGCUGCACUGGAAUUCUCGGGUGCCAA: 0.355

Block 4 — method: RNA Bind-n-Seq; form: RNA; matrix: in vitro; tested at: not given; relative to: input RNA pool; reading: higher = stronger binding; quantity: bound/input enrichment
Target: RING finger protein unkempt homolog, zinc fingers 1-6, GST-SBP tag (UNK, Homo sapiens, UniProt Q9C0B0, residues 30-357)
Setting: RNA with constant flanks, human and mouse sites, ends assumed
Construct (chain): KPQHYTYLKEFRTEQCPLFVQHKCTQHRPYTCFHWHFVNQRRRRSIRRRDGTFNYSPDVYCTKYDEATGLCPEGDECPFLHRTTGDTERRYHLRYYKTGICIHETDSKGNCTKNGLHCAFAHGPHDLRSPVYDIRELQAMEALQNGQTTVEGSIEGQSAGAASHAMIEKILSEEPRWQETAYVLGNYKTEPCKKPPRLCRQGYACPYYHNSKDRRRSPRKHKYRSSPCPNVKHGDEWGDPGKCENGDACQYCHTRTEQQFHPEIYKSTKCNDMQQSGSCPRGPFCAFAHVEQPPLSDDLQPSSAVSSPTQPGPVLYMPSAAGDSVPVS
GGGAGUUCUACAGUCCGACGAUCCCAGAGGUGAAAGGCUAUUGGGCAAGUUUGGAUGCAUCUACUCAAACCACCCAUGAACUCACCAUUCCAAAUAACUUAAUCGGCUGCAUAAUCGGGCGCCAAGGCGCCAACAUCAAUGAGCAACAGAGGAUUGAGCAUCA: 0.0796 ratio
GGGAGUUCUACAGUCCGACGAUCCUUGACGAUGAUGAAUGUCCUUUACAAAUCUUCAGGGAAUGGCCAAGUGACAAAGGGAUUUUAGUCUUUCAGUUGAAGAGGAGACCACCGGACUACAUCCCAAAGAAAAUGAAGAAACAUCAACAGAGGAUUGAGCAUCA: 0.164 ratio
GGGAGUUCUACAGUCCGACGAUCACUCAUGUACCCAUGUUACAGGUAUGGACUGCUGAUAAACCACAUCCACAAGAAGAGUAUUUAGAUUGCCUGUGGGCCCAGAUUCAGAAAUUGAAAAAGGAUCGCUGGCAGGAACGGCACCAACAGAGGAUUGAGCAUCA: 0.188 ratio
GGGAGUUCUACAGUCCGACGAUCCACAGAUCCUCCCUGUCAUGCCACAUUUCACUGAUUGGAAUGUGGAAAUGGAAAAGGAAUUUAGGAUGUGCAUUUUCACCUGAGGUUUCCCUGCAUCCCUGCAGUGCCAAAGCCCCACCUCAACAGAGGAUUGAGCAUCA: 0.189 ratio
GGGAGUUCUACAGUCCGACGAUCACAGAAUGGAGCUAUGGACGUUAAUUUGACCGUCUACUCCAAUCCCCGCCAAGAGACUGGCAUAGCUGGACAUCCAACAUACCAAUUUUCUGCUAAUACAGGUCCUGCACAUUACAUGACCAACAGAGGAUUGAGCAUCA: 0.141 ratio
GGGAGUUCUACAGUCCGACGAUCAAAGGGUAUACCAAUUCUGAAACUAAAGUACAAACAGCAAAGCAUUCUCAUUUUCGGUCACAUUCCAGAUCUCGAAGUUAUCGUCAUAAAAACAGUUGGUGAACAGCAACAGAAAGAGCACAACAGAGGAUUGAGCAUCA: 0.271 ratio
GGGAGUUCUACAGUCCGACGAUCGUCUCCAUUUUGUCAGCAAUGGAGCUCAUCUGGAACCUGUGUGAGAUUCUUUUUAUUGAAGUGGCCCCAGCUGGCCCUCUCCUCCUCCAUCUCCUUGACUGGGUCCGGCUCCAUGUGUGCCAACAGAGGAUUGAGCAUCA: 0.271 ratio
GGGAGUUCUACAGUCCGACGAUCGAUGAAAAGCCAGUGAGUGUUAAUGAAGUACCAGACUACCAUGAGGAUAUUCACACAUACCUUAGGGAAAUGGAGGUUAAAUGUAAACCUAAAGUGGGUUACAUGAAGAAACAGCCAGACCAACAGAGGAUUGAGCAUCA: 0.16 ratio

A few entries again (block 1):
TTAGGTTTCTTTATCCTTTAGTGCTAG: 3.36 z-score
TTAGGACTGGGTCTCGGATAGTGCTAG: -0.636 z-score
CACGGACTGGGTTTCGGGACGTGCTAG: 1.2 z-score
TTTCACACTGTCCAGCAGGTGTGCTAG: 3.4 z-score
TTAGGTCTCCTTCTCATTTAGTGCTAG: 4.19 z-score
